Measured values from different studies.
Each numbered part is a random draw from the data of one study; scales do not carry over between parts.

Study 1
Target: RNA binding protein fox-1 homolog 2, RRM domain, GST-SBP tag (RBFOX2, Homo sapiens, UniProt O43251-10, residues 100-194)
Method: RNA Bind-n-Seq
Form: RNA
Medium: in vitro
Concentration: 365 nM
Notes: natural RNA segment, single round, ends assumed
Baseline: no-protein control
Reading: higher = stronger binding
Residues (chain): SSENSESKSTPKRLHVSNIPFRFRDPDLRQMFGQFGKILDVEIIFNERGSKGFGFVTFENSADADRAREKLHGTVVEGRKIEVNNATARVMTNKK
Strand | RBNS enrichment (R)
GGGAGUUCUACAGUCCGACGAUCAGCUCUUGGGUUAAAUGGUUUGUUAUGAGCAGGCUUUCCAUUACUCAUUGUUCUGCGAUUUAUUUUAGAGAUUGUCCAUGAGCACUGAACAAGGAGAAGAAGUUUCUUGUUGGAAUUCUCGGGUGCCAA | 0.555
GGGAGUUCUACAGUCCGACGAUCCCGCCAUGUGCAGGAGCUGGCGGGCUGGCUGCCUUCUGGACCCUGGCUUCUCCCCACCGUGCGCCUGUUACAAACUGUUGUGGAUUCUGCCAGGCUCGAAGAAAAUGAUCUGGAAUUCUCGGGUGCCAA | 0.557
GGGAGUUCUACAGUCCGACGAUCUCAGAGUCAGUUGCACACCAGUAGGAUGGCAUGCUACGAUCAGUUUCUGUCCUGAAAGCUUUGCCUCUUUCUUGGCAAAGUUUCUGGUAUGGUCAAGCUUGUAAAUAACCUGGAAUUCUCGGGUGCCAA | 0.573
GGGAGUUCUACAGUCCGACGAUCUACUUAAUUGGCUACUUUAUUUAACAAUGUUUUAGGGAUGUCGUUCAGUAUCUUUUCCAGUGUUUGCUACCUAAGAUCCCAUUGGGGUAAAAAUAUAACUCAGAUUUCACUGGAAUUCUCGGGUGCCAA | 0.459
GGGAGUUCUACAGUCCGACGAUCAUGGUGUAUCUCUCUGUGUAAUGGUGAGCCAUGCUGCAAGGUUGUAGCCUUGGCCCGAAGACAGAAAAUUCUCUCUGCCCUGCUGUAUCAUAAAGCACACACUUAGUGCCUGGAAUUCUCGGGUGCCAA | 0.216
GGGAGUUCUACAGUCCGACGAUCUUGUUCCUUUAGCAAUCAACCCCAGAAAAUAUUAAAAUGGGAUCAUACACAGAAGAUAGAAAAAUCUAGCAAAACUUCUCUUUCUGUAAGCCAGAGUCUUGUCUAUCAGAUGGAAUUCUCGGGUGCCAA | 0.451
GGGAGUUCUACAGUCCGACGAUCUGCUGUUAGUGUGCUCAACUACAGAAAUAGCCGCUGCUAAGUGAUGUAGAUUUUCUACUUGAAUAUUUUUAUGUUGUAGGAACCUCAGGAGGUCAGUGUUUACUGUUUUAUGGAAUUCUCGGGUGCCAA | 0.351
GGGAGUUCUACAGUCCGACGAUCUUUUUUGCAAUUAAGGCAGGCAUUUGCCAAUGUCUUCUUUUAAGCAGUAGUUGGAAACAUCUCAAUUACAGUGUAACACCUUAGAGCUAAAAACAUUUGUUCAACACAAAUGGAAUUCUCGGGUGCCAA | 0.229

Study 2
Target: Sal-like protein 4, full length isoform B (SALL4, Homo sapiens, UniProt Q9UJQ4-2, residues 1-616)
Method: universal PBM
Form: double-stranded DNA, one strand shown
Medium: in vitro
Concentration: not given
Notes: 8-mer, flanks averaged, mean of replicates
Reading: higher = stronger binding
Construct (chain): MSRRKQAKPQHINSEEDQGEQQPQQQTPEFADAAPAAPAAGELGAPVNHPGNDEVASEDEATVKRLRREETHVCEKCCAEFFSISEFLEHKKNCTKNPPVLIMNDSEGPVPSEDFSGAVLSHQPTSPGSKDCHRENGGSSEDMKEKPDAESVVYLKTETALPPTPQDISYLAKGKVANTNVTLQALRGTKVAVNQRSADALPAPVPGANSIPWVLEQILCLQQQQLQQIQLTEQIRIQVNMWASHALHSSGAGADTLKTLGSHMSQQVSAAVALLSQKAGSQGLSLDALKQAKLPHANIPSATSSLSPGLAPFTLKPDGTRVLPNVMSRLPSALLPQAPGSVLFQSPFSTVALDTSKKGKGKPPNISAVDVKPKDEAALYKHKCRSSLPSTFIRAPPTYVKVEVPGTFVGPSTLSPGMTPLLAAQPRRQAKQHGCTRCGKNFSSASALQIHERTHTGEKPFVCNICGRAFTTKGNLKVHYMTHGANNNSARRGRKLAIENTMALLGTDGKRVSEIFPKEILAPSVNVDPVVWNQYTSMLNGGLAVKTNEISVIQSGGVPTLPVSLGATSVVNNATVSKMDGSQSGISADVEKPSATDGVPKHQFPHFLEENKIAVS
Strand | E-score
CCCAAAAA | -0.0061
AAACTCTG | 0.171
AGCACAGG | -0.217
CGTCAACC | -0.0991
CGTATAAG | 0.127
CGCTTTAG | -0.128
CCGGCCAG | -0.423
CATGCACG | 0.0885
AAACGTCT | 0.13
TCCTGAGA | -0.00389

Study 3
Target: Histone acetyltransferase KAT6A, both winged helices, GST fusion (KAT6A, Homo sapiens, UniProt Q92794, residues 1-181)
Method: protein binding microarray
Form: double-stranded DNA, one strand shown
Medium: in vitro
Concentration: not given
Notes: 8-mer, flanks averaged, mean of 2 arrays, mostly near background
Baseline: not given
Reading: higher = stronger binding
Construct (chain): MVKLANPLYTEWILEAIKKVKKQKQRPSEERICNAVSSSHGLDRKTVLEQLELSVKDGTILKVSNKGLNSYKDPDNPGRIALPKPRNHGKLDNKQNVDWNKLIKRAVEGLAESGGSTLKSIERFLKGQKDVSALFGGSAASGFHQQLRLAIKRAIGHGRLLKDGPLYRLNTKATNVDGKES
Strand | E-score
CCCAGGGG | -0.212
GCACATGC | -0.00012
CCTCAGAG | -0.129
CACTCTGG | -0.223
CAAATCCC | -0.0426
AAAAAGTA | -0.0427
GCAACACA | -0.0909
ACCTCCCT | -0.233
ATAGAGTC | 0.0607
CGGGTACA | 0.208

Further values, each from its own experiment
Substance | target | test | test system | conditions | how to read | endpoint | value
PhoQ, residues 284 288 289 292 302 303 AGHLVA | PhoP, residues 12 14 15 18 19 VQALL (Escherichia coli, UniProt P23836) | Sort-seq, item: YFP reporter | E. coli | PhoQ-PhoP variant library, added: 10 µM Mg2+ | baseline: high Mg2+ state, higher = stronger signaling | fold induction | 8.36

Repeated from above (further values, each from its own experiment):
Substance | target | test | test system | conditions | how to read | endpoint | value
PhoQ, residues 284 288 289 292 302 303 AGHLVA | PhoP, residues 12 14 15 18 19 VQALL (Escherichia coli, UniProt P23836) | Sort-seq, item: YFP reporter | E. coli | PhoQ-PhoP variant library, added: 10 µM Mg2+ | baseline: high Mg2+ state, higher = stronger signaling | fold induction | 8.36
